# Published values gathered from unrelated publications.
# Each numbered part is a random draw from the data of one study; scales do not carry over between parts.

# Set 1
# Target: Sal-like protein 4, full length isoform A (SALL4, Homo sapiens, UniProt Q9UJQ4, residues 1-1053)
# Chain of UniProt Q9UJQ4 (whole entry, looked up): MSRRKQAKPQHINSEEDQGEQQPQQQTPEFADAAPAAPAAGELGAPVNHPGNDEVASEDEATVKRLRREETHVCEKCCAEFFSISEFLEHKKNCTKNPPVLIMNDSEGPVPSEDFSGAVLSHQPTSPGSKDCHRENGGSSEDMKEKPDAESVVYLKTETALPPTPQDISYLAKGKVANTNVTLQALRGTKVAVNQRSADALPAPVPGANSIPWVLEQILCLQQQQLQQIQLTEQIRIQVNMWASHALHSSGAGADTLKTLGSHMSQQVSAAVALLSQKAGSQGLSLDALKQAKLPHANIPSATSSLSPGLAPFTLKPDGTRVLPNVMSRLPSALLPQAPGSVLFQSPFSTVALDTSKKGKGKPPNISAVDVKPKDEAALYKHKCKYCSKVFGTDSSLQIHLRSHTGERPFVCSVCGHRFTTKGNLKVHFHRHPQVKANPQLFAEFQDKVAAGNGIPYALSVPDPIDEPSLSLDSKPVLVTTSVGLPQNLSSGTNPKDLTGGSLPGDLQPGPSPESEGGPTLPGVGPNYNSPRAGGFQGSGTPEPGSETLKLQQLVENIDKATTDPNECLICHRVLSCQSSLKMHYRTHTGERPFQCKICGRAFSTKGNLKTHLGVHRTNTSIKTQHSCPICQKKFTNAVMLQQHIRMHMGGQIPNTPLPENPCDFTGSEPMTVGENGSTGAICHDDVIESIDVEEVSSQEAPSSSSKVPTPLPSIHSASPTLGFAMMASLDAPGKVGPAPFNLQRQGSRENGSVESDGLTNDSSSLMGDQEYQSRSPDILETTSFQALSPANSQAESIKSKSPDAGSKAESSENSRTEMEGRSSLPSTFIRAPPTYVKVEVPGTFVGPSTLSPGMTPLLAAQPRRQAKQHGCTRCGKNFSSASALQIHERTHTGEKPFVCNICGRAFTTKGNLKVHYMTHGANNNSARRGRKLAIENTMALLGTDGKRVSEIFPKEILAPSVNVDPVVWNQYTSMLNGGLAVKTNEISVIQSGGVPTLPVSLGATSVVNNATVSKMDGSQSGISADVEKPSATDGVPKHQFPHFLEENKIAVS
# Method: universal PBM
# Form: double-stranded DNA, one strand shown
# Matrix: in vitro
# Concentration: 600 nM
# Notes: 8-mer, flanks averaged, mean of replicates
# Direction: higher = stronger binding
Strand,E-score
AATGGATA,0.112
AGGAACCC,-0.323
CTCAATAA,0.27
AATTCAAA,0.344
CGAGAGAC,-0.111
ACACCCCA,-0.176
CACGACCA,-0.133
AGTCGACA,0.0227
CATGTGCA,-0.00739
ATCCGCAC,-0.0786
ATGTATGC,0.241
ATAAATTG,0.389
CACTACTA,0.0279
TAATTGCA,0.215
GCCATTCA,-0.036
AATGAATC,0.16
CTGCTGTA,0.0361
GGGTACAC,-0.171
CAGACCAC,-0.241
AGCGTCAA,0.0492

# Set 2
# Target: Histone acetyltransferase KAT6A, both winged helices, GST fusion (KAT6A, Homo sapiens, UniProt Q92794, residues 1-181)
# Method: protein binding microarray
# Form: double-stranded DNA, one strand shown
# Matrix: in vitro
# Concentration: not given
# Notes: 8-mer, flanks averaged, mean of 2 arrays, mostly near background
# Baseline: not given
# Direction: higher = stronger binding
# Construct (chain): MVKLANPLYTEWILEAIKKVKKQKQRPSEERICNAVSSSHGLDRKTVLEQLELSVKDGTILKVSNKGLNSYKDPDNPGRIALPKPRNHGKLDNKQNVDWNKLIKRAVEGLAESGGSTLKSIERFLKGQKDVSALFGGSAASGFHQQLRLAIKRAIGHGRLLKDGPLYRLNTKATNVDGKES
Strand,E-score
GGTCGCGA,0.281
GGCTGGTA,-0.149
GCCGTGCC,0.244
ATTCCAGC,-0.0797
ATAATGTA,-0.138
CGTCCCTC,-0.00887
CAGACTCG,-0.15
ACCGGTAT,0.158
AAGAAATA,-0.189
ATACAAGC,-0.0344
ACCCCGTA,0.189
AACTCTCG,-0.0513
ACCAATAT,-0.199
AAAAAGCT,0.0365
GCACTGAC,0.0385
ACCTGGCG,0.0886
AACCCCCG,0.138
CCAACGGC,0.198
AGTACGGA,0.22
CCTGTCTC,-0.206
AGGAGGCA,-0.163

# Set 3
# Target: RNA binding protein fox-1 homolog 2, RRM domain, GST-SBP tag (RBFOX2, Homo sapiens, UniProt O43251-10, residues 100-194)
# Method: RNA Bind-n-Seq
# Form: RNA
# Matrix: in vitro
# Concentration: 365 nM
# Notes: natural RNA segment, single round, ends assumed
# Baseline: no-protein control
# Direction: higher = stronger binding
# Shared flanks, not repeated: GGGAGUUCUACAGUCCGACGAUC … UGGAAUUCUCGGGUGCCAA
# Target sequence (chain): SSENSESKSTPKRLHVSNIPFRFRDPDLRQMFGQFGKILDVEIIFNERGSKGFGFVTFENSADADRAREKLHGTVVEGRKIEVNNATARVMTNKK
Strand,RBNS enrichment (R)
CUGCCUCGGCGGUAUCCACAGAAGACAGGCAAGAGGAUUGGAGCAGUUUUCUCACAGGUCUGCAAUUCUGUUUUUCUCCAAGUACAUUAUGACCCCCUCAUCCUUCUCUU,0.479
GACACAUGUAAUGAAGGUCACAGUCCACAGGUGACAGAGAAAUCCAAACUGUUGAUUACAGGUGCACUACAGGUAUGCUCUUUCAGUCUAUCUGGGGGCACAUAGGUGAG,0.32
GUAUUGAUGCUACCUCAGGUCUCUAAGAUGCACAUGAGUCAGCACAGGUGGCACUGUCUCUCCCUUGGUCCUUCAGGACCAUAGCAGAUCCUGCAGGUUGACACGAAGUA,0.723
ACUUUGAUUUCCUUGUUCAGGUCAGGGCCUGGAACGCCUGUGCGGGGAGGUCACUCAAUUCAAAAUUUUCUGUAUGAAAGCAUUUUUCACCAAAAUGAGCCUCAUCCCUU,0.434
AGGAUGUAUAAGGUGACGACACAAACCAAAUACCUUUCUUUCAUCACUUAACUAUACGUACUUUAUCUCUGGUAACACUAGAAUGCUGUGGUCUUGAGGGAAUGUUAGCA,11.2
UGACUAGAUAUAGCACCUAUUAAAAGAGAACUCUUGCUUCUUCUGAGAUUUUUCAAGCUGUGCUUUGUGUGUGUGCCAGUAGACUUACGCAAGGACAGGGUACAAACUUA,0.392
CUGUAGGUGAUUCUUGACUGUGGGGAUUGGAAUUUGAGGCAGAAGUUACCAUCCCUACUACAUUUUUUAAAGUUGGUAGCACAAAUGCUUUUUAUUCUAUGAAAACAAUC,0.958
UGCUGCAAGGACCAGAGCCAGCCCCCAGGAGCCUCAGGGCCCACUUAGGAAGGAUGCCUUGUGCCUAUGGGCCCUUUGGUGACAUGUGGGGCUCUGGAUCCUUGGGUGUC,6.23
CAGUGUUGAGAAUACGGCCUGGUAAAAUGGGAGAUGUAAAAUGACUAAAUGAAAGGAAGGGUAGUUUUAAUGUUGAAGCACCGUGCUGGGCACUGGAGCUACCCAGAGGA,0.549
UGCUGGAAUUGAAACAAUACUUUAAUACCGUUUAAGUUUGUUUCCUUUUUUUUUUUCCUCUUUUUUUUUUCUUUCACCAAGAAAAGAAAAAAGUAAACUAAAAUACAAAA,0.454
AUAACUAAACUGAAUAUCAUCCCAUAUUGAUUUUAGGAAUUGACUCUAAAACUCUGUGCAGAAUCUUGUGUUGGGAUUGUAUCUUGACAUUCCUGUUGUGUUAUUUUUCU,0.529
AGCUUCAGACCCGGAGAUGUUGUUCACGCCCUUGCCCUGUGCCCACCUCUUCUCUUCCUGCCCGGCUCUGCUUCUGUGUCUUGAUGUCAGCUCACACAAUUCCAAAGGAA,0.828

# Set 4
# Target: Interferon regulatory factor 3, full length, phosphomimetic (IRF3, Homo sapiens, UniProt Q14653, residues 1-427, S386D/S396D/S398D/S402D/T404D/S405D)
# Method: protein-binding microarray
# Form: double-stranded DNA, one strand shown
# Matrix: in vitro
# Concentration: 2540 nM top
# Notes: 60-bp whole probe
# Added: salmon DNA 0.4 mg/ml
# Baseline: random background probes
# Direction: higher = stronger binding
# Shared flanks, not repeated: GCCTAGCAC … GTCTTGATTCGCTTGACGCTGCTG
# Target sequence (chain): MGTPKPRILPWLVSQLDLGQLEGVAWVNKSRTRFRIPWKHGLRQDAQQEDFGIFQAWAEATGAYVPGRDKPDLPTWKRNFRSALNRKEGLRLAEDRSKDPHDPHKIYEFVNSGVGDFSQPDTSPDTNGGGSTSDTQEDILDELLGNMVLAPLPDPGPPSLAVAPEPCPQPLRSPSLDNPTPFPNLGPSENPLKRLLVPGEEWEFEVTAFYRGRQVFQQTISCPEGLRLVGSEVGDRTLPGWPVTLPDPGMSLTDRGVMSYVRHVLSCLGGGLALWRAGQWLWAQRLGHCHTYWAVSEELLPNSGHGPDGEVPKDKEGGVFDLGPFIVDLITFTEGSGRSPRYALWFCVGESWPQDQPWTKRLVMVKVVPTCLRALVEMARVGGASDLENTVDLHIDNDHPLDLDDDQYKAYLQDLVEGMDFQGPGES
Strand,fitted relative affinity [z-score]
TCAAATTGTCCTTTCACACTGTGCTAG,2.39
GACGAACTGGGTTATCGAGACGTGCTA,-0.308
GACGGTTTCGGATTCGGGACGTGCTAG,8.01
CGTACTGTATCTAGCCTTGCGTGCTAG,1.2
TTTTCACTTTCTTTAACATAGTGCTAG,4.6
TTAGGTATCGCGTATCGGTTAGTGCTA,0.994
GACGGTTCCCTTGTCCTGACGTGCTAG,2.11
TTAGGACTGGACTATAGGTTAGTGCTA,-0.616
TTAGGACTGGACACTGCGTTAGTGCTA,-0.87
TCAGATTTCGATTACAAACTGTGCTAG,2.79
GCTAGTATGTTCCTTATTTAAGTGCTA,1.38
GACGGACTGGACGTTCGGGACGTGCTA,-0.377
TCATGCTTTCATTTATTACTGTGCTAG,1.04
TTAGGTTTCGGTCTCGGTTCGTGCTAG,8.68
TTAGTTCTCGGTCTCGGTTAGTGCTAG,1.59
TTAGGTATCGGACTGGTTTAGTGCTAG,1.28
GACGATATCGGACTGGAGACGTGCTAG,0.363
TTAGAACTGAGGCTGGATTAGTGCTAG,-0.688
TTCACTTTCCAAAACATGAAGTGCTAG,4.49
TCATCTTTCTCTGCTACCACTGTGCTA,1.9
